Results pooled from the literature.
Every numbered part comes from another study and shows a few of its results, in no order. Positions count from the first letter of the parent shown.

Set 1 — method: RNA Bind-n-Seq; form: RNA; sample: in vitro; concentration: 200 nM; setting: whole 134-nt RNA, ends assumed; together with: 150 mM LiCl; baseline: input library; reading: higher = stronger binding; endpoint: log2 enrichment; library: 7-deaza-guanosine replaces G
Target: Ras GTPase-activating protein-binding protein 1, full length (G3BP1, Homo sapiens, UniProt Q13283)
Chain of UniProt Q13283 (whole entry, looked up): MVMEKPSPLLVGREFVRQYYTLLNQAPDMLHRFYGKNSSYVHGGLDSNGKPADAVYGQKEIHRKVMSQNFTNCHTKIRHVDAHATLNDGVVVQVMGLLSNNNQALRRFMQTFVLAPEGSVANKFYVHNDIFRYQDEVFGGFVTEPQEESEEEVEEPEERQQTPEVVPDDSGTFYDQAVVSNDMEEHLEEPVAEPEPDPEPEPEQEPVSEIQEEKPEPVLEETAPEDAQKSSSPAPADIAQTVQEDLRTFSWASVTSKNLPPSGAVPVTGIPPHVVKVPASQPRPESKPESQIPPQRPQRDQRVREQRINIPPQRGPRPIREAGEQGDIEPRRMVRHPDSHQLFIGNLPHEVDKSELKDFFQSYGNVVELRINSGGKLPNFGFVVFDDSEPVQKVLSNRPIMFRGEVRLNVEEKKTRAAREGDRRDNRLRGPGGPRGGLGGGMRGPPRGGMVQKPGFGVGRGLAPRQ
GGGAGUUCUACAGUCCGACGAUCCACAGACAAAAAGCACCCACACAGACACAGAGGGAAGGGGUUGGGAUGGGGACAGGGUGCACAGCAGGGCGGGGUAGGACCCCAGCCCCUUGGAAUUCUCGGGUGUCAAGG: 0.326
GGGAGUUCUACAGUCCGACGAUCGCAGGAAGUAAAAACAAAUGGAAAUGCUUCGGAUAGUGGCAGGGGCGGGGGUUGCUAAGGAAAGGGUGGGAUGGGAGUGGGUAAAGAGUUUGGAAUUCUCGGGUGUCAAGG: -0.0988
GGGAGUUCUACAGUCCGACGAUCACCAUGCAGGUGGGCAUCUUUGGGAAGUGGGGCAAGGGGGGGAUAGGGAGGAGGGUAACACUUUGGGAACAGGUGGUCCCAGGUCGUUUCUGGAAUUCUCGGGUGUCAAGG: 0.352
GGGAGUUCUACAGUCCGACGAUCUAACUUUAGAGUAGGAUCUGAUGGAUAUGGCAGUGGACGUGGAUUUGGGGAUGGCUAUAAUGGGUAUGGAGGAGGACCUGGAGGUGGCAAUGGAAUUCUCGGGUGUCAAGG: -0.218
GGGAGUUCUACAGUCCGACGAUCACCAUGCAGGUGGGCAUCUUUAAAAAGUGGGGCAAGGGGGGGAUAGGGAGGGGGGUAACACUUUGGGAACAGGUGGUCCCAGGUCGUUUCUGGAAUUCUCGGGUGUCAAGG: 0.437
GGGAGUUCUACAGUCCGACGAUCCUGUGCUACACAUCGUAUGUACCGAAUCGGGGAAAAAAAGGGGUUUUUGGGGUUUUUGGGGAAAGUAUUAUGUUACGCCGUUCGGAUCUGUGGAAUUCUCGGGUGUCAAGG: -1.33
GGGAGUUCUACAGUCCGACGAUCGUCCUGUGCUACACAUCGUAUGUACCGAAUCGGCCCCCGGGGCCCCCGGGCCCCCGGGGAAAGUAUUAUGUUACGCCGUUCGGAUCUGCAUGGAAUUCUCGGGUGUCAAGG: -2.11
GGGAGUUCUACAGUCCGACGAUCCAAGUCCUGUGCUACACAUCGUAUGUACCGAAUCGGGAAAGGGAAAGGAAAGGGGAAAGUAUUAUGUUACGCCGUUCGGAUCUGCACUUCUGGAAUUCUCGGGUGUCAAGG: -0.00248
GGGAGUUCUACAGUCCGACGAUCCAAGUCCUGUGCUACACAUCGUAUGUACCGAAUCGGGUUUGGGAGGGAAAAAGGGAAAGUAUUAUGUUACGCCGUUCGGAUCUGCACUUCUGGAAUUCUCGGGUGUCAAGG: -0.184
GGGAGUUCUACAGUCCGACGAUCUGGGAGGUGUAUUUUGUUUAUUUUUUUAGCUCAUUUCCAGGGGUGGGAAUUUUUUUUUAAUAUGUGUCAUGAAUAAAGUUGUUUUUGAAAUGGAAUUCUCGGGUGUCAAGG: 0.0849
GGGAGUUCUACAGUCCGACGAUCCAAGUCCUGUGCUACACAUCGUAUGUACCGAAUCGGAGGUUUUUGGAAAAAAAGGAAAGUAUUAUGUUACGCCGUUCGGAUCUGCACUUCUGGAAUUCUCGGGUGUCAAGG: -0.253

Set 2 — target: CCND2, cyclin fold, Cln2 fusion (human); method: yeast growth competition, sequencing; sample: yeast; setting: weak parent motif; baseline: not given; reading: higher = stronger binding; endpoint: normalised enrichment score
Parent: RBL1 docking peptide (human); GSAKRRLFGEDPP
R6F: 0.328
S2W: -0.299
S2V: 0.467
K4H: -0.0146
L7W: 0.431
G9R: 0.0198
P12N: 0.0331
G1Q: -0.0186
G1C: 0.0347
D11C: 0.592
E10N: 0.187
G9M: 0.364
G9C: 0.632
F8G: 0.173
G1A: 0.41
F8M: 0.37
F8Y: 0.295
K4M: 0.385
R5L: 0.101
E10I: 0.368
A3S: 0.0508
P13T: 0.148
S2T: 0.135

Set 3 — method: DHFR PCA, deep sequencing; sample: yeast; together with: (+)-ABA 1.4 µM; baseline: wild-type fitted maximum; reading: higher = stronger binding; endpoint: relative binding score
Target: ABI1, truncated, D143A, DHFR fusion (Arabidopsis thaliana)
Setting: methotrexate growth selection, single substitutions
Parent: PYL1, truncated, DHFR fusion (Arabidopsis thaliana); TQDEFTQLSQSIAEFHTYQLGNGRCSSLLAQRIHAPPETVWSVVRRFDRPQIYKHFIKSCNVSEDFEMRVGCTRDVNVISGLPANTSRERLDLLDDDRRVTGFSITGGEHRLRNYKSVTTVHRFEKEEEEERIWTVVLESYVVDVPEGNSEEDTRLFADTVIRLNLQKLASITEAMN
H110E: 17%
L20Y: 43.7%
R49N: 35.2%
E174A: 11%
E67I: 50.1%
E151V: 57.3%
N149Y: 7.89%
L91A: 11.2%
I162N: 0.00821%
T6Q: 68.5%
I33S: 6.56%
L156S: 38.2%
A84N: 17.2%

Set 4 — method: protein binding microarray; form: double-stranded DNA, one strand shown; sample: in vitro; concentration: not given; baseline: not given; reading: higher = stronger binding; endpoint: E-score
Target: Histone acetyltransferase KAT6A, both winged helices, GST fusion (KAT6A, Homo sapiens, UniProt Q92794, residues 1-181)
Setting: 8-mer, flanks averaged, mean of 2 arrays, mostly near background
Construct (chain): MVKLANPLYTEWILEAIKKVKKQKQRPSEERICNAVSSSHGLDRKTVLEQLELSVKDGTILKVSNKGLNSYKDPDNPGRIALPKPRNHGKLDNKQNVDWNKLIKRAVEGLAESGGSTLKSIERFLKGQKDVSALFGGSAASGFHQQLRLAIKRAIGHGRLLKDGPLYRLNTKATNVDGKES
GACTAATA: -0.105
AGCCCAAT: -0.244
AGGGAGCA: -0.168
AGTCGACA: -0.142
AGCTGTGC: -0.0949
GTCTCCAA: -0.0253
ACCTCGAG: 0.02
ACCATAAC: -0.0168
ACATGTAC: -0.0214
ATCAGAGG: -0.0657
GGGAGTCA: -0.165
AGCTCAAA: -0.0322
AACGAGCG: 0.179
ACACCAGA: -0.193
GAAAGGGA: 0.00758
AAGACTAT: -0.143
GCCGTCTA: 0.229
CGAAGCGA: 0.0837
GTTGCTGA: -0.0307
ATACTGGG: -0.157
CCCCGTCG: 0.212
CCCGTCGC: 0.291
ATCTGAGA: -0.219
GTAACTCA: -0.166
CAGGGCGA: 0.066
